# Experimental data pooled from the literature.
# Protocols differ between the studies behind these lines. ± gives the spread as reported.
# rep main protease: Replicase polyprotein 1ab, main protease (rep, Severe acute respiratory syndrome coronavirus 2, UniProt P0DTD1)
# rep nsp14: Replicase polyprotein 1ab, nsp14 (rep, Severe acute respiratory syndrome coronavirus 2, UniProt P0DTD1)
# rep nsp14 with nsp10: Replicase polyprotein 1ab, nsp14 with nsp10 (rep, Severe acute respiratory syndrome coronavirus 2, UniProt P0DTD1)
# rep nsp3 Mac1 domain: Replicase polyprotein 1ab, nsp3 Mac1 domain (rep, Severe acute respiratory syndrome coronavirus 2, UniProt P0DTD1)
SMILES,target or system,test,system,conditions,scale,quantity,value
Oc1nc(/C=C/c2ccc(Cl)cc2Cl)cc(C(F)(F)F)n1,"Replicase polyprotein 1ab, nsp16 with nsp10 (rep, Severe acute respiratory syndrome coronavirus 2, UniProt P0DTD1)",nsp16-nsp10 methyltransferase activity,,"no preincubation, added: DTT 5 mM",,IC50,~100000 nM
Cc1ccc(S(=O)(=O)N[C@H](Cc2ccccc2C#N)C(=O)N[C@H](Cc2ccc(Cl)cc2Cl)C(=O)N[C@H](CC(=O)NCCCCN(C)C)Cc2ccc(F)cc2)cc1,rep main protease,"enzyme activity, inhibitor",,,,IC50,> 10000 nM
O=C(Oc1cncc(Cl)c1)c1cc2ccccc2s1,rep main protease,"enzyme activity, inhibitor",,,,IC50,26.1 nM
COc1ccc(CNC(=O)c2cc(S(=O)(=O)N3CCC(C)CC3)c(C)n2C)cc1,rep nsp14,"enzyme activity, inhibitor",,,,IC50,540 nM
O=C(O)C(O)=CC(=O)C1(Cc2ccc(Cl)cc2)CCN(C(=O)OCc2ccccc2)CC1,rep nsp14 with nsp10,"exonuclease activity, inhibitor",,,,IC50,33800 nM
O=C(O)c1cc(OC2OC(CO)C(O)C(O)C2O)c2ccccc2c1O (centres unmarked),rep nsp3 Mac1 domain,"enzyme activity, inhibitor, fluorescence polarization",,,,IC50,> 300000 nM
C#CCCCCNC(=O)C[C@H](Cc1ccc(F)cc1)NC(=O)[C@@H](Cc1ccc(Cl)cc1Cl)NC(=O)[C@H](N)Cc1ccccc1C#N,rep main protease,"enzyme activity, inhibitor",,,,IC50,100 nM
CC(C)C[C@@H](C(=O)N[C@@H](C[C@@H]1CCNC1=O)C(=O)C(=O)NC1CC1)N1C[C@@H](NC(=O)OCc2cc(F)cc(F)c2)CCC1=O,rep main protease,inhibitor,,,,IC50,1920 nM
O=C(NCc1ccccc1)C1C(=O)N(O)C(=O)c2cc([N+](=O)[O-])ccc21 (centres unmarked),rep nsp14 with nsp10,"exonuclease activity, inhibitor",,,,IC50,7800 nM
O=C(NC1CCN(c2ncnc3[nH]cnc23)CC1)c1cccc(NS(=O)(=O)c2ccc(Cl)cc2)c1,SARS-CoV-2,,Wuhan-Hu-1,200 µM,baseline: untreated infected cells,relative infection,15.3%
O=C(Nc1cccc(Cl)c1)Nc1nonc1NC(=O)Nc1cccc(Cl)c1,"Replicase polyprotein 1ab, nsp4-nsp5-nsp6 precursor (rep, Severe acute respiratory syndrome coronavirus 2, UniProt P0DTD1)","reporter gene, inhibitor, Rev-Nluc cell",,,,IC50,> 50000 nM
CN(C)CCCCNC(=O)C[C@H](Cc1ccc(F)cc1)NC(=O)[C@@H](Cc1ccc(Cl)cc1Cl)NC(=O)[C@H](O)Cc1ccccc1C#N,rep main protease,"enzyme activity, inhibitor",,,,IC50,500 nM
O=C(O)C(O)=CC(=O)C1(Cc2ccc(Cl)cc2)CCN(C(=O)C=Cc2ccccc2)CC1,rep nsp14 with nsp10,"exonuclease activity, inhibitor",,,,IC50,20000 ± 1800 nM
O=C(Oc1cccc2cccnc12)c1cccs1,rep nsp3 Mac1 domain,"enzyme activity, inhibitor, AlphaScreen",,,,IC50,7950 ± 800 nM
N#Cc1ccccc1C[C@@H](N)C(=O)N[C@H](Cc1ccc(Cl)cc1Cl)C(=O)N[C@H](CC(=O)NCCCC(N)=O)Cc1ccc(F)cc1,rep main protease,"enzyme activity, inhibitor",,,,IC50,90 nM
O=C(Nc1ccc(F)cc1)C1C(=O)N(O)C(=O)c2cc([N+](=O)[O-])ccc21 (centres unmarked),rep nsp14 with nsp10,"exonuclease activity, inhibitor",,,,IC50,6900 nM
Cc1c(S(=O)(=O)N2CCC(C)CC2)cc(C(=O)NCc2ccccc2)n1C,rep nsp14,"enzyme activity, inhibitor",,,,IC50,360 nM
CC(=O)NCCCCNC(=O)C[C@H](Cc1ccc(F)cc1)NC(=O)[C@@H](Cc1ccc(Cl)cc1Cl)NC(=O)[C@H](N)Cc1ccccc1C#N,rep main protease,"enzyme activity, inhibitor",,,,IC50,80 nM
NS(=O)(=O)c1ccc(-c2cn(-c3ccc(C(=O)C=C(O)C(=O)O)cc3)nn2)cc1,rep nsp14 with nsp10,"exonuclease activity, inhibitor",,,,IC50,14000 ± 4000 nM
CC[C@H](C)[C@H](NC(=O)[C@H](C)NC(=O)[C@H](CCC(=O)O)NC(=O)[C@H](CCC(=O)O)NC(=O)[C@H](CC(C)C)NC(=O)[C@H](CCCCN)NC(=O)[C@H](CCCCN)NC(=O)[C@H](CCSC)NC(=O)[C@H](CCC(=O)O)NC(=O)[C@H](Cc1ccc(O)cc1)NC(=O)[C@H](CCC(=O)O)NC(=O)[C@H](CC(C)C)NC(=O)[C@H](CC(=O)O)NC(=O)[C@H](CC(C)C)NC(=O)[C@H](Cc1ccccc1)NC(=O)[C@H](Cc1ccccc1)NC(=O)[C@@H](NC(=O)[C@H](CC(N)=O)NC(=O)[C@@H](NC(=O)[C@H](CCC(N)=O)NC(=O)[C@H](CC(=O)O)NC(=O)[C@H](CC(C)C)NC(=O)[C@@H](N)CO)[C@@H](C)CC)C(C)C)C(=O)N[C@@H](CCCCN)C(=O)N[C@@H](CCCCN)C(=O)N[C@@H](CC(C)C)C(=O)N[C@@H](CCC(=O)O)C(=O)N[C@@H](CCC(=O)O)C(=O)N[C@@H](CO)C(=O)N[C@@H](Cc1ccc(O)cc1)C(=O)N[C@H](C(=O)N[C@@H](CC(=O)O)C(=O)N[C@@H](CC(C)C)C(=O)N[C@@H](CCCCN)C(=O)N[C@@H](CCC(=O)O)C(=O)N[C@@H](CC(C)C)C(=O)O)[C@@H](C)CC,SARS-CoV-2 Alpha pseudovirus,"pseudovirus infection, inhibitor, luciferase",Caco-2,24 h,,IC50,294 nM
COc1cccc(C(=O)N(CCC(=O)N2CCNCC2)Cc2cccc(Cl)c2)c1,rep nsp3 Mac1 domain,"enzyme activity, inhibitor, AlphaScreen",,,,IC50,74900 ± 4500 nM
N#CCNC(=O)C[C@H](Cc1ccc(F)cc1)NC(=O)[C@@H](Cc1ccc(Cl)cc1Cl)NC(=O)[C@H](N)Cc1ccccc1C#N,rep main protease,"enzyme activity, inhibitor",,,,IC50,600 nM
CC[C@H](C)[C@H](NC(=O)[C@H](C)NC(=O)[C@H](CCC(=O)O)NC(=O)[C@H](CCC(=O)O)NC(=O)[C@H](CC(C)C)NC(=O)[C@H](CCCCN)NC(=O)[C@H](CCCCN)NC(=O)[C@H](CCSC)NC(=O)[C@H](CCC(=O)O)NC(=O)[C@H](Cc1ccc(O)cc1)NC(=O)[C@H](CCC(=O)O)NC(=O)[C@H](CC(C)C)NC(=O)[C@H](CC(=O)O)NC(=O)[C@H](CC(C)C)NC(=O)[C@H](Cc1ccccc1)NC(=O)[C@H](Cc1ccc(O)cc1)NC(=O)[C@@H](NC(=O)[C@H](CC(N)=O)NC(=O)[C@@H](NC(=O)[C@H](CCC(N)=O)NC(=O)[C@H](CC(=O)O)NC(=O)[C@H](CC(C)C)NC(=O)[C@@H](N)CO)[C@@H](C)CC)C(C)C)C(=O)N[C@@H](CCCCN)C(=O)N[C@@H](CCCCN)C(=O)N[C@@H](CC(C)C)C(=O)N[C@@H](CCC(=O)O)C(=O)N[C@@H](CCC(=O)O)C(=O)N[C@@H](C)C(=O)N[C@@H](Cc1ccc(O)cc1)C(=O)N[C@H](C(=O)N[C@@H](CC(=O)O)C(=O)N[C@@H](CC(C)C)C(=O)N[C@@H](CCCCN)C(=O)N[C@@H](CCC(=O)O)C(=O)N[C@@H](CC(C)C)C(=O)O)[C@@H](C)CC,SARS-CoV-2 Beta pseudovirus,"pseudovirus infection, inhibitor, luciferase",Caco-2,"24 h, dual mutations",,IC50,534 nM
